Results collected from several papers.
Each line is one published result; not all experiments were run side by side. Values joined by “and” are separate records of one study, mostly repeats; a detail may differ. ± gives the spread as reported.
UniProt Q9UHI6, sequence (whole entry, looked up): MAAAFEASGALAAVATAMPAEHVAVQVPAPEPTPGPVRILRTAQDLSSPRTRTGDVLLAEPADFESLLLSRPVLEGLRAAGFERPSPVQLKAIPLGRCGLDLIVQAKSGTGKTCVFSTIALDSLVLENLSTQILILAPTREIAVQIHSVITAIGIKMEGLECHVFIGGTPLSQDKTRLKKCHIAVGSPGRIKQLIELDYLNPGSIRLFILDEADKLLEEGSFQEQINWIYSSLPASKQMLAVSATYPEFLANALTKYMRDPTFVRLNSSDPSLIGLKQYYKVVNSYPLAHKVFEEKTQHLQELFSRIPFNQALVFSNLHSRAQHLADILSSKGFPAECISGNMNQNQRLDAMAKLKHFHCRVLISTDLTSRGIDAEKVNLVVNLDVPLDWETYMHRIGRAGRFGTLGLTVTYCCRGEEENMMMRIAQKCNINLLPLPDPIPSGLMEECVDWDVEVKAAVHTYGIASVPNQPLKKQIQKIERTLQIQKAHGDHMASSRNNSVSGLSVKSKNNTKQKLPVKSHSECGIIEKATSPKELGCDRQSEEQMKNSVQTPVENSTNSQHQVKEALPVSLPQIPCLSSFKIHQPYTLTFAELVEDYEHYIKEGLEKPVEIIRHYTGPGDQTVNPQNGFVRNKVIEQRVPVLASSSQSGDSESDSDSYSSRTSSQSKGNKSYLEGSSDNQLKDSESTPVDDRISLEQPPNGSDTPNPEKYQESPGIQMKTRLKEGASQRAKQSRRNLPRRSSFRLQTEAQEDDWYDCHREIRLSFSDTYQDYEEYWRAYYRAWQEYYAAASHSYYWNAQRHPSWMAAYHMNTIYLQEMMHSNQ
UniProt P09960, sequence (whole entry, looked up): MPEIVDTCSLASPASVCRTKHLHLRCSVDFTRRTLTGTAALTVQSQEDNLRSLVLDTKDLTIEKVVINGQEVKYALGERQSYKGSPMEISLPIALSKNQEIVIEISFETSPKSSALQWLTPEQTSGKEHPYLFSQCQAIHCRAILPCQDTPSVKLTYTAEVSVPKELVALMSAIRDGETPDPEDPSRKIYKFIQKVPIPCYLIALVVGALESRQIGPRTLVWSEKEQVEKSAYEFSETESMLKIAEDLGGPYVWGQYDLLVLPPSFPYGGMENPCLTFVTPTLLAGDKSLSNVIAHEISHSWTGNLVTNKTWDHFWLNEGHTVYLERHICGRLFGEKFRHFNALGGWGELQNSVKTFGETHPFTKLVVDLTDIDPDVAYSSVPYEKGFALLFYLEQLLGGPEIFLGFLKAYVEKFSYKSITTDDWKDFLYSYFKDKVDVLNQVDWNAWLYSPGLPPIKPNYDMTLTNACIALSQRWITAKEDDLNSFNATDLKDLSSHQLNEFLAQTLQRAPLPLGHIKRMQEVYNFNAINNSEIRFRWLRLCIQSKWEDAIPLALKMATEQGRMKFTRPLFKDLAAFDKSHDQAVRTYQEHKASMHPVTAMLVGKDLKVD

SMILES | tested on | test | system | setting | how to read | quantity | value
CCCCCCCCCCCCCCCC(=O)N[C@H]1C[C@@H](O)[C@@H](O)NC(=O)[C@@H]2[C@@H](O)[C@@H](C)CN2C(=O)[C@H]([C@@H](C)O)NC(=O)[C@H]([C@H](O)[C@@H](O)c2ccc(O)cc2)NC(=O)[C@@H]2C[C@@H](O)CN2C(=O)[C@H]([C@@H](C)O)NC1=O |  | calcein leakage | DOPC/CHOL liposomes | concentration not given, together with: 20 wt% PEG-8000 |  | fusion time constant | 13 ± 6 min
COc1c(CCC[P+](c2ccccc2)(c2ccccc2)c2ccccc2)cc2c(c1OC)OCO2.[I-] | TK-10 | SRB |  |  |  | GI50 | -5.33 log M
Cn1cccc1-c1cccnc1 |  | radioligand binding | rat brain | 50 µM, BZP site, PDSP screen |  | inhibition | 32.1%
CCCCCCCCCC(=O)N[C@@H](Cc1c[nH]c2ccccc12)C(=O)N[C@H](CC(N)=O)C(=O)N[C@@H](CC(=O)O)C(=O)N[C@@H]1C(=O)NCC(=O)N[C@@H](CCCN)C(=O)N[C@@H](CC(=O)O)C(=O)N[C@H](C)C(=O)N[C@@H](CC(=O)O)C(=O)NCC(=O)N[C@H](CO)C(=O)N[C@@H]([C@H](C)CC(=O)O)C(=O)N[C@@H](CC(=O)c2ccccc2N)C(=O)O[C@@H]1C |  | calcein leakage | DOPC/DOPG/CHOL liposomes | concentration not given, together with: 40 mM CaCl2 |  | fusion time constant | 18 ± 9 min
COc1cc(Nc2ncc(F)c(Nc3ccc4c(n3)NC(=O)C(C)(C)O4)n2)cc(OC)c1OC | LTA4H (Homo sapiens, UniProt P09960) |  |  |  |  | IC50 | > 10 µM
COc1cc(C(=O)NS(=O)(=O)c2ccccc2C)ccc1Cc1cn(C)c2ccc(NC(=O)OC3CCCC3)cc12 |  | platelet aggregation | human platelet-rich plasma | 10 µM, 180 s, together with: collagen | baseline: DMSO | inhibition | 7%
CCCCC1(CCCC)CN(c2ccccc2)c2cc(SC)c(OCC(=O)N[C@@H](C(=O)NCC(=O)O)c3ccccc3)cc2S(=O)(=O)C1 |  | refers to: LDL cholesterol | human, serum | 2.5 mg once daily, day 9 |  | serum LDL-C | 99.3 mg/dL
COc1c(O)cc(O)c2c(=O)cc(-c3ccccc3)oc12 |  |  | rat plasma 10% | 100 µg/mL, together with: OS 1 µg/mL |  | inhibition of OS hydrolysis | > 50%
Cc1cn([C@H]2O[C@@H](CO[P@@](=O)(N[C@@H](C)C(=O)OC(C)C)Oc3ccccc3)[C@H](O)[C@H]2F)c(=O)[nH]c1=O |  |  | adults with chronic hepatitis B | 10 mg, day 28 | baseline: baseline | change in HBV DNA | 2.78 log10 IU/mL
C[C@H]1O[C@@H](O[C@H]2CC[C@@]3(C)[C@@H](CC[C@]4(C)[C@@H]3C=C[C@]35OC[C@@]6(CCC(C)(C)C[C@H]63)[C@@H](O)C[C@]54C)[C@]2(C)CO)[C@H](O)[C@@H](O[C@@H]2O[C@H](CO)[C@@H](O)[C@H](O)[C@H]2O)[C@H]1O |  |  | mouse, ethanol-fed, hepatic SIRT1 knockdown, plasma | dose not given, 5 h, high dose |  | γ-GT activity | 31.4 U/L and 41.6 U/L and 31.1 U/L and 33.6 U/L and 36.2 U/L
CN1CCN(S(=O)(=O)c2cc([N+](=O)[O-])ccc2N(CCOS(C)(=O)=O)CCOS(C)(=O)=O)CC1 |  |  | NSG mice, sample BA PDX | intraperitoneal, 25 mg/kg weekly x3 | baseline: vehicle | EFS delay (T-C) | 30.8 days
CC[C@H](C)[C@@H]1NC(=O)[C@@H]2CCCN2C(=O)[C@H](CC(C)C)NC(=O)[C@H](CC(C)C)NC(=O)CNC(=O)[C@@H](NC(=O)[C@@H](NC(=O)[C@H](CC(=O)O)NC(=O)CNC(=O)[C@@H](NC(=O)[C@H](C)NC(=O)CNC(=O)[C@H](CCCCN)NC(=O)[C@H](CC(C)C)NC(=O)[C@H](CC(C)C)NC(=O)[C@H](CCCCN)NC(=O)CNC(=O)[C@@H](NC(=O)[C@@H](N)CC(C)C)C(C)C)C(C)C)C(C)C)CSSC[C@@H](C(=O)O)NC1=O |  | RNA-seq, refers to: Nt5dc2 mRNA | mouse traumatic brain injury, frontal cortex and hippocampus | dose not given | baseline: TBI plus compound vs TBI | log2 fold change | -0.896
O=C(O[C@@H]1Cc2c(O)cc(O)cc2O[C@@H]1c1cc(O)c(O)c(O)c1)c1cc(O)c(O)c(O)c1 | human coronavirus OC43 | virus-induced cell killing | MRC-5 | screen |  | maximum inhibition | 22.9%
COc1cc2c(Oc3ccc4[nH]c(C)cc4c3F)ccnc2cc1OCC1(N)CC1 |  |  | paediatric recurrent refractory sarcoma | 8 mg/kg |  | grade 3 Dizzy | 0%
CC[C@H](C)[C@H](NC(=O)[C@H](CCC(=O)O)NC(=O)[C@H](CCCNC(=N)N)NC(=O)[C@H](CCCNC(=N)N)NC(=O)[C@H](CCCNC(=N)N)NC(=O)[C@H](CCC(N)=O)NC(=O)[C@H](CCCNC(=N)N)NC(=O)[C@H](CCCNC(=N)N)NC(=O)[C@H](CCCCN)NC(=O)[C@H](CCCCN)NC(=O)[C@H](CCCNC(=N)N)NC(=O)CNC(=O)[C@H](Cc1ccc(O)cc1)NC(C)=O)C(=O)N[C@@H](CC(=O)O)C(=O)N[C@@H](Cc1c[nH]cn1)C(=O)N[C@@H](CC(=O)O)C(N)=O |  | co-immunoprecipitation | db/db mouse, hippocampus | intravenous, dose not given, 6 weeks, weekly |  | RAGE-RIPK1 interaction | decreased
COc1ccc(-c2ccc3ncc4c(c3c2)n([C@@H]2CCN(C)CC2(F)F)c(=O)n4C)cn1 |  |  | mouse, sample A orthotopic PDX | 7.5 mg/kg x 10, together with: 2.3 Gy radiation |  | survival | 371 ± 131 days
O=C(O)/C=C/C(=O)O.Oc1cccc2[nH]cc(CCNCc3ccccc3)c12 |  |  | C57BL/6J mice | subcutaneous, 10 mg/kg | baseline: pre-session baseline | body temperature change | -0.4 ± 0.2 °C
C[C@H]1CN(c2n[nH]c3nc(N[C@H]4CC[C@H](NS(=O)(=O)CCC(F)(F)F)CC4)ncc23)CCO1 | DDX20 (Homo sapiens, UniProt Q9UHI6) | inhibitor, Kinobeads competition profiling |  | 0.032 µM | baseline: vehicle | relative abundance | 1.06
C=CC(=O)Nc1cc(Nc2ncc(Cl)c(Nc3ccccc3C(=O)C(=O)N(C)C)n2)c(OC)cc1N1CCN(C)CC1 |  | RECIST v1.1 best response | human EGFR T790M NSCLC | oral, 50 mg/day, per-protocol set |  | patients with stable disease | 66.7%
Cc1cn(-c2cc(NC(=O)c3ccc(C)c(Nc4nccc(-c5cccnc5)n4)c3)cc(C(F)(F)F)c2)cn1 |  |  | human patients | dose not given, 12 months vs baseline, unit not given | baseline: placebo | ADAS-Cog maze errors change | 0
Cc1c(C(=O)O)ccc2c3n(nc12)[C@@H]1[C@H](C3)N(CC2CC2)[C@@]2(C(=O)Nc3cc(Cl)ccc32)[C@H]1c1cccc(Cl)c1F |  |  | Rag1-/-Abcb1a-/-Abcg2-/- mouse, MDM2-amplified orthotopic PDX | 2 mg/kg | baseline: vehicle | survival extension | > 5 fold
CC[C@H](C)[C@H](NC(=O)[C@H](Cc1ccccc1)NC(=O)[C@H](CCC(=O)O)NC(=O)[C@H](CCCNC(=N)N)NC(=O)[C@H](C)NC(=O)[C@H](C)NC(=O)[C@H](CCC(N)=O)NC(=O)[C@H](CCC(=O)O)NC(=O)[C@H](CCC(=O)O)NC(=O)[C@H](CC(C)C)NC(=O)[C@H](Cc1ccc(O)cc1)NC(=O)[C@H](CO)NC(=O)[C@H](CO)NC(=O)[C@@H](NC(=O)[C@H](CC(=O)O)NC(=O)[C@H](CO)NC(=O)[C@@H](NC(=O)[C@H](Cc1ccccc1)NC(=O)[C@@H](NC(=O)CNC(=O)[C@H](CCC(=O)O)NC(=O)[C@H](C)NC(=O)CCc1c[nH]cn1)[C@@H](C)O)[C@@H](C)O)C(C)C)C(=O)N[C@@H](C)C(=O)N[C@@H](Cc1c[nH]c2ccccc12)C(=O)N[C@@H](CC(C)C)C(=O)N[C@H](C(=O)N[C@@H](CCCNC(=N)N)C(=O)NCC(=O)N[C@@H](CCCNC(=N)N)C(=O)N[C@@H](CCCCNC(=O)COCCOCCNC(=O)COCCOCCNC(=O)CC[C@H](NC(=O)CCCCCCCCCCCCCCCCC(=O)O)C(=O)O)C(=O)NCC(=O)NCC(=O)N[C@@H](CO)C(=O)N[C@@H](CCCCNc1c(NCCCCCN(O)C(=O)CCC(=O)NCCCCCN(O)C(=O)CCC(=O)NCCCCCN(O)C(C)=O)c(=O)c1=O)C(=O)O)C(C)C [zirconium-89 labelled] |  | gamma counting | rat, skin at injection site | intravenous, 3 nmol/kg, 168 h |  | tissue uptake | 0.1 %ID/g
COc1cc(CCC[P+](c2ccccc2)(c2ccccc2)c2ccccc2)c(OC)c2c1OCO2.[I-] | T47D | SRB |  |  |  | LC50 | > -4 log M
Cc1cc2c(C(C)C)c(O)c(O)c(C=O)c2c(O)c1-c1c(C)cc2c(C(C)C)c(O)c(O)c(C=O)c2c1O | human coronavirus OC43 | virus-induced cell killing | MRC-5 | maximum over 10 doses |  | maximum inhibition | 0%
C[C@]1(CO)Cc2ncn(-c3ccc(C#N)c(Cl)c3)c2C(=O)O1 |  |  | healthy men, plasma | dose not given, single and multiple doses |  | time to marked plasma aldosterone decrease | 1 to 2 h
Nc1ncnc2c1ncn2[C@@H]1O[C@@H]2COP(=O)(O)O[C@H]3[C@@H](O)[C@H](n4cnc5c(=O)[nH]cnc54)O[C@@H]3COP(=O)(O)O[C@H]2[C@H]1O | HFF-1 | RNA sequencing, refers to: OAS antiviral response |  | upregulated pathway | baseline: Zika virus alone | pathway fold enrichment | 30.6
C[C@@H](O)[C@@H](CO)NC(=O)[C@@H](CCCNC(=N)N)NC(=O)[C@@H]1CCCN1C(=O)[C@@H]1CSSC[C@H](NC(=O)[C@H](Cc2ccccc2)NC(=O)CN2CCN(CC(=O)O)CCN(CC(=O)O)CCN(CC(=O)O)CC2)C(=O)N[C@@H](Cc2ccc(O)cc2)C(=O)N[C@@H](Cc2ccccc2)C(=O)N[C@@H](CCC(N)=O)C(=O)N[C@@H](CC(N)=O)C(=O)N1 [gallium-68 labelled] |  |  | Wistar rat, adrenals | intravenous, 8 MBq, 120 min, group mean |  | tissue uptake | 0.07 %ID/g
COc1ccc(CCC2CCCC(CCc3ccc(OC)cc3)N2C[C@@H](O)CO)cc1.Cl (stereo in doubt) |  | methamphetamine-evoked dopamine release | rat striatal slices | 100 µM, together with: methamphetamine 5 µM |  | time of significant inhibition | 45 to 65 min
[131I-].[Na+] |  |  | hyperthyroidism patients | 185 MBq, 12 months, long-term follow-up |  | hypothyroid patients | 54.4%
S=C(NC1CCCCC1)N1CCC(c2cnc[nH]2)CC1 |  | antinociception, hot plate test | rat | intracerebroventricular, 5 min |  | ED50 | > 1700 nmol
